Measured values from different studies.
Each line is one published result; not all experiments were run side by side. ± marks the error that the study gave.

Structure (SMILES) | test | system | conditions | how to read | quantity | result
CCn1cc(C(=O)NCCCCCC(=O)N[C@@H](CCCNC(=N)N)C(=O)N[C@@H](Cc2c[nH]c3ccccc23)C(=O)N[C@@H](CCC(N)=O)C(=O)N[C@@H](Cc2c[nH]c3ccccc23)C(=O)N[C@@H](CCCNC(=N)N)C(=O)N[C@@H](Cc2c[nH]c3ccccc23)C(=O)N[C@@H](CCC(N)=O)C(=O)N[C@@H](Cc2c[nH]c3ccccc23)C(=O)N[C@@H](CCCNC(=N)N)C(N)=O)c(=O)c2cc3c(cc21)OCO3 | RP-HPLC, C18 column | – | – | higher is more hydrophobic | retention time | 6.9 min
N=C(N)NCCC[C@@H]1NC(=O)[C@H](CCCCNC(=O)CC[C@H](NC(=O)CC[C@H](NC(=O)CN2CCN(CC(=O)O)CCN(CC(=O)O)CCN(CC(=O)O)CC2)C(=O)N[C@@H](CCC(=O)NCCCC[C@@H]2NC(=O)[C@@H](Cc3ccccc3)NC(=O)[C@H](CC(=O)O)NC(=O)CNC(=O)[C@H](CCCNC(=N)N)NC2=O)C(=O)NCCCC[C@@H]2NC(=O)[C@@H](Cc3ccccc3)NC(=O)[C@H](CC(=O)O)NC(=O)CNC(=O)[C@H](CCCNC(=N)N)NC2=O)C(=O)NCCCC[C@@H]2NC(=O)[C@@H](Cc3ccccc3)NC(=O)[C@H](CC(=O)O)NC(=O)CNC(=O)[C@H](CCCNC(=N)N)NC2=O)NC(=O)[C@@H](Cc2ccccc2)NC(=O)[C@H](CC(=O)O)NC(=O)CNC1=O [indium-111 labelled] | – | female athymic nu/nu mice, lungs | intravenous, 24 h | – | tissue uptake | 1.5 ± 0.39 %ID/g
C=C1CC[C@H](OCCCNC(=O)CCOCCOCCOCCOCCOCCOCCOCCOCCOCCOCCOCCOCCOCCOCCOCCOCCOCCOCCOCCOCCOCCOCCOCCOCCOCCOCCOCCOCCOCCOCCOCCOCCOCCOCCOCCOCCNC(=O)CCN2C(=O)CC(SC[C@H](NC(=O)[C@H](Cc3ccccc3)NC(=O)[C@H](CC(N)=O)NC(=O)[C@H](Cc3c[nH]cn3)NC(=O)[C@@H](NC(=O)[C@H](CC(=O)O)NC(=O)[C@H](CCC(N)=O)NC(=O)[C@H](CC(C)C)NC(=O)[C@H](CCCCN)NC(=O)[C@H](CCCCN)NC(=O)[C@H](CCCNC(=N)N)NC(=O)[C@H](CC(C)C)NC(=O)[C@H](Cc3c[nH]c4ccccc34)NC(=O)[C@H](CCC(=O)O)NC(=O)[C@@H](NC(=O)[C@H](CCCNC(=N)N)NC(=O)[C@H](CCC(=O)O)NC(=O)[C@H](CCSC)NC(=O)[C@H](CO)NC(=O)[C@H](CC(N)=O)NC(=O)[C@H](CC(C)C)NC(=O)[C@H](Cc3c[nH]cn3)NC(=O)[C@H](CCCCN)NC(=O)CNC(=O)[C@H](CC(C)C)NC(=O)[C@H](CC(N)=O)NC(=O)[C@H](Cc3c[nH]cn3)NC(=O)[C@H](CCSC)NC(=O)[C@H](CC(C)C)NC(=O)[C@H](CCC(N)=O)NC(=O)[C@@H](NC(=O)[C@H](CCC(=O)O)NC(=O)[C@H](CO)NC(=O)[C@@H](NC(=O)[C@@H](N)CO)C(C)C)[C@@H](C)CC)C(C)C)C(C)C)C(N)=O)C2=O)C/C1=C/C=C1\CCC[C@]2(C)[C@@H]([C@H](C)CCCC(C)(C)O)CC[C@@H]12 (stereo partly drawn) | – | Sprague Dawley rat | subcutaneous, 70 µg/kg daily, 21 days | relative to: 1 µg/kg dose | dose-normalized Cmax | 4.74
CCCC[C@H](NC(=O)COCCOCCNC(=O)CN1CCN(CC(=O)O)CCN(CC(=O)O)CC1)C(=O)N[C@H]1CC(=O)NCCCC[C@@H](C(N)=O)NC(=O)[C@H](Cc2c[nH]c3ccccc23)NC(=O)[C@H](CCCNC(=N)N)NC(=O)[C@@H](Cc2ccccc2)NC(=O)[C@H](Cc2c[nH]cn2)NC1=O [copper-64 labelled] | – | C57 mice, blood | intravenous, 0.37 MBq, 4 h | – | tissue uptake | 0.2 ± 0.03 %ID/g
O=C(O)CC[C@H](NC(=O)N[C@@H](CCCCNC(=O)CCCCC[C@H](NC(=O)CCS[C@@H]1O[C@H](CO)[C@H](O)[C@H](O)[C@H]1O)C(=O)NCCCC[C@@H](NC(=O)[C@@H](Cc1ccccc1)NC(=O)[C@@H](Cc1ccc(O)c(I)c1)NC(=O)CCC(C(=O)O)N1CCN(CC(=O)O)CCN(CC(=O)O)CCN(CC(=O)O)CC1)C(=O)O)C(=O)O)C(=O)O (stereo partly drawn) [gallium-68 labelled] | shake flask n-octanol/PBS | – | pH 7.4, radiolabelled compound | – | logP | -4.15 ± 0.07
CCCC[C@H](NC(=O)CCCCCCCNC(=O)CN1CCN(CC(=O)O)CCN(CC(=O)O)CC1)C(=O)N[C@H]1CC(=O)NCCCC[C@@H](C(N)=O)NC(=O)[C@H](Cc2c[nH]c3ccccc23)NC(=O)[C@H](CCCNC(=N)N)NC(=O)[C@@H](Cc2ccccc2)NC(=O)[C@H](Cc2c[nH]cn2)NC1=O [copper-64 labelled] | – | C57 mice, stomach | intravenous, 0.37 MBq, 4 h | – | tissue uptake | 0.43 ± 0.09 %ID/g
N=C(N)NCCC[C@H](NC(=O)[C@H](Cc1c[nH]c2ccccc12)NC(=O)[C@H](CCC(N)=O)NC(=O)[C@H](Cc1c[nH]c2ccccc12)NC(=O)[C@H](CCCNC(=N)N)NC(=O)[C@H](CCCNC(=N)N)NC(=O)CCCCCNC(=O)/C=C/c1ccc(O)c(O)c1)C(N)=O | RP-HPLC, C18 column | – | – | higher is more hydrophobic | retention time | 5.1 min
CC(C)C[C@H](NC(=O)C[C@H](O)[C@H](CC(C)C)NC(=O)[C@H](Cc1c[nH]cn1)NC(=O)CNC(=O)[C@@H](NC(=O)[C@H](C)NC(=O)[C@H](Cc1c[nH]c2ccccc12)NC(=O)[C@H](CCC(N)=O)NC(=O)[C@@H](Cc1ccccc1)NC(=O)CCOCCOCCOCCNC(=O)CN1CCN(CC(=O)O)CCN(CC(=O)O)CC1)C(C)C)C(N)=O [gallium-68 labelled] | microPET imaging | mouse PC-3 xenograft, PC-3 tumour | intravenous, 3.7 MBq, 30 min | – | maximum tumour uptake | 4.79 ± 0.98 %ID/g
CCCC[C@H](NC(=O)CNC(=O)CNC(=O)CN1CCN(CC(=O)O)CCN(CC(=O)O)CCN(CC(=O)O)CC1)C(=O)N[C@H]1CC(=O)NCCCC[C@@H](C(N)=O)NC(=O)[C@H](Cc2c[nH]c3ccccc23)NC(=O)[C@H](CCCNC(=N)N)NC(=O)[C@@H](Cc2ccccc2)NC(=O)[C@H](Cc2c[nH]cn2)NC1=O [lutetium-177 labelled] | – | C57 mouse, female, skin | intravenous, 0.037 MBq, 2 h | – | tissue uptake | 0.48 ± 0.06 %ID/g

Excerpt of the above:
Structure (SMILES) | test | system | conditions | how to read | quantity | result
CCCC[C@H](NC(=O)CNC(=O)CNC(=O)CN1CCN(CC(=O)O)CCN(CC(=O)O)CCN(CC(=O)O)CC1)C(=O)N[C@H]1CC(=O)NCCCC[C@@H](C(N)=O)NC(=O)[C@H](Cc2c[nH]c3ccccc23)NC(=O)[C@H](CCCNC(=N)N)NC(=O)[C@@H](Cc2ccccc2)NC(=O)[C@H](Cc2c[nH]cn2)NC1=O [lutetium-177 labelled] | – | C57 mouse, female, skin | intravenous, 0.037 MBq, 2 h | – | tissue uptake | 0.48 ± 0.06 %ID/g
